Published values collected from several papers.
Every numbered part comes from another study and shows a few of its results, in no order.

Block 1
Target: Interferon regulatory factor 7, full length, phosphomimetic (IRF7, Homo sapiens, UniProt Q92985, residues 1-503, S471D/S472D/S475D/S476D/S477D/S483D/S484D/S487D)
UniProt Q92985, sequence (whole entry, unmodified, looked up): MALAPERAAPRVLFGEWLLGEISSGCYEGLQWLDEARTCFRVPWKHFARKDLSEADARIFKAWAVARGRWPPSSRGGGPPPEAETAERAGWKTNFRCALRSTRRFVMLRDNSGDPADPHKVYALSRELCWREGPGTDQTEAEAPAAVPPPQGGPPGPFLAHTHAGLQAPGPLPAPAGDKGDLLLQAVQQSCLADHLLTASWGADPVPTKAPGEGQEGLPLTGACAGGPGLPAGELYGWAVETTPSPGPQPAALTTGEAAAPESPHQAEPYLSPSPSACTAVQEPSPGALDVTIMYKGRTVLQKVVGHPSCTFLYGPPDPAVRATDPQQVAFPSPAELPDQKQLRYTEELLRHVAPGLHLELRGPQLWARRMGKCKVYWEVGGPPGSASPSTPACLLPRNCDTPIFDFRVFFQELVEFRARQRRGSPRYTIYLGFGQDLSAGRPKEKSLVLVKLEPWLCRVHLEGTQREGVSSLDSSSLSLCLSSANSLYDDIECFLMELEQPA
Technique: protein-binding microarray
Form: double-stranded DNA, one strand shown
Matrix: in vitro
Tested at: 2200 nM top
Notes: 60-bp whole probe
Together with: salmon DNA 0.4 mg/ml
Baseline: random background probes
Direction: higher = stronger binding
All sequences stand within: GCCTAGCAC … GTCTTGATTCGCTTGACGCTGCTG
| Sequence | fitted relative affinity [z-score] |
| --- | --- |
| GACGGTTTCGGGAATCGGGACGTGCTA | 2.9 |
| TGAGATATCGGGTATCGATTAGTGCTA | 0.0812 |
| TCAACTGTGTGTTTGAGACTGTGCTAG | 0.255 |
| TACTAGAGTAAAACCCTGGCGTGCTAG | -0.436 |
| TTAGGTTTCGAACTGGGTTAGTGCTAG | 2.52 |
| GACGATTTCGGGTTTCGAGCCGTGCTA | 4.72 |
| TCAATCATCCGTTTCTTACTGTGCTAG | 1.89 |
| TCATACATGTGTTTAAGACTGTGCTAG | 0.606 |
| TCAACTCTCTGGGCTGTGACTGTGCTA | 0.416 |
| TTAGGACTAGACTTTCGGTTAGTGCTA | 4.34 |
| TCAAATTAGAATTTAAAACTGTGCTAG | -1.32 |
| TTAGAACTGAGTTTCGATTGGTGCTAG | 5.43 |
| TCAAGTTGTACTTTCTAACTGTGCTAG | 1.72 |
| AACCATTTTGGTTTTCCTTAGTGCTAG | 2.2 |
| TTAGGTCTTCTTTTCCTTTAGTGCTAG | 1.75 |
| TTAGGGTTCCTTATCCTTTAGTGCTAG | 0.617 |
| CGCGCTTCTCGGCGGCGAAGGTGCTAG | 0.538 |
| GACGATTCCAGTTTCGAGAAGTGCTAG | 2.38 |
| TTAGGTATCGGGACTGGGTTGGTGCTA | -0.291 |
| TTAGAGATCAGTCTCGATTAGTGCTAG | -0.381 |
| GACGGTTTCGGGCATCGGGACGTGCTA | 2.34 |

Block 2
Target: RING finger protein unkempt homolog, zinc fingers 1-6, SBP tag (UNK, Homo sapiens, UniProt Q9C0B0, residues 30-357)
UniProt Q9C0B0, sequence (30-357, looked up): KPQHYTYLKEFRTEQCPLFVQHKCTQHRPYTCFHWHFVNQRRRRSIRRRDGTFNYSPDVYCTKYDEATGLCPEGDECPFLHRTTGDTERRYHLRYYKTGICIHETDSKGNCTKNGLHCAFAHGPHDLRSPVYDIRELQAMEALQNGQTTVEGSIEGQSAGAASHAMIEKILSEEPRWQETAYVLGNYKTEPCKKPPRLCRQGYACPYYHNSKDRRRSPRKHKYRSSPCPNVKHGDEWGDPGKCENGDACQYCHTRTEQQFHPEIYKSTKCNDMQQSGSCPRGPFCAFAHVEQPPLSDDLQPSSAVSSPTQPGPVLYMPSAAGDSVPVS
Technique: RNA Bind-n-Seq
Form: RNA
Matrix: in vitro
Tested at: 100 nM
Notes: RNA with constant flanks, vertebrate orthologous sites, ends assumed
Baseline: input RNA pool
Direction: higher = stronger binding
All sequences stand within: GGGAGUUCUACAGUCCGACGAUC … CAACAGAGGAUUGAGCAUCA
| Sequence | bound/input enrichment |
| --- | --- |
| GUAGUUUGUUUUUAAUUUCAAGCAAAAAAUCUUAUUGUACUUGAAUGUGUCCUGUUUUGUUAGCACACCUAGACUUGCUGUAACUGUACUCAUGUCCCAGUAUGUACGUUCUUUCUAUGA | 1.02 ratio |
| GAACCUAAACUUAUAGCAAAAGAGCCAAGCAGUAGCAGUUUUUGUAAAUGUAAAAAUAAUUAGAUCCAGACUUUGUUUCCUUCAAUUUCAAAAAUAAAAAAUACCUCAGUGCUAUGUUUU | 1.04 ratio |
| GAACUAAAGGAGUUAGCAUCUUUAUUUUUGUAUCAAAGAUAAAGGUUAUUUUGAAAUUAUUAAGAUUUUUACACAACUCUGAAAUCUGUUGCUUUUGUAAACAAGUUGUUUAAUCUUAGG | 0.474 ratio |
| CUUAACCCCAUCUCUUCUGUUUCCUAGUGCCGCCGAGAGCGUCCUCUCUGACUCUUUCAUUAGCGAACUCAUUUUAAUUUUAGAAAAAACUUUCAGCAUCGUUGCUGACAGCUGCUCUAC | 2.14 ratio |
| UGACCAUACAUACAAAAUGUGCUUUGAGUCAUGAGUGUGAAUGAAACCAUAGCUUGAAAAGAAUUCACUUUUAGAACUAUACAACACAUAAGAACCCAUAAGCCAGAGGCCUGAGUUCUU | 0.402 ratio |
| AUCCUCAACUCGCUCUGGCCUGUGACCCUUCAAAACUGGGCCAGGAUUAGUGCGAGGUGCUAGGAAUUGCCGUCUCUCGCGCCAUUGAUCAGAGAGACAGACAUUAAAACAGGAAUAUCA | 0.215 ratio |
| GUGUUGGUGCAGAGUGUCCUGUACCAGUGCUCAUCAUCCCCUCUUCAUACCAACUGUCCCUAGUUAUAGGAAUUUAAUAUUUUUAAAAGUUUUACAUUGCUGUAUAUUCAAAGAUUUGUU | 1.08 ratio |
| CAUGUCCUUGUUACUGUGAUAUUUAAAAUAUCCACAGUAUUCACCUUUUCCAAAUGAUUCUAGUAAUAUCUUUCUCUUAUCUGUUAUUUAUCAAUUUUUCCCAGUAUUUUUAUAUGGAAA | 1.58 ratio |
| AUGACAAUGAAAAGAGCCAAGCAGUAGCAUUUUGUUUUUUUUUAUAAAUGUAAAAAUUAGAUUCACUUUGUUUCCUAUUCAGUUUUAAAAAUAAAAAUACCUCAGUGCUGUGUUUCCCAG | 0.622 ratio |
| AUAGUUAUGUUGUUAGUUAUAUGGAAUGACCUUGAUCCUGAGUUCGCUUCCUCAGUAACGUAGAUUUCAUUUCUAUUCCUGCACUUUUAGUGAUGUCAAUAAAUAGAAGGUUUGUGUCAG | 1.24 ratio |
| AGUUUAGAUAAUCUUUUUAUUUUUUUUUCUUUUCCCUCAAUCCUUUUUUAUUUUUAAAACUAGUUCUUUUGUAAUGUGGUGUUCAAAACAGAAUUGAAAACUGGCACCCCAUCUCUUUGA | 7.04 ratio |

Block 3
Target: Histone acetyltransferase KAT6A, winged helix 2, GST fusion (KAT6A, Homo sapiens, UniProt Q92794, residues 85-181)
Technique: protein binding microarray
Form: double-stranded DNA, one strand shown
Matrix: in vitro
Tested at: not given
Notes: 8-mer, flanks averaged, mean of 2 arrays, mostly near background
Baseline: not given
Direction: higher = stronger binding
Target sequence (chain): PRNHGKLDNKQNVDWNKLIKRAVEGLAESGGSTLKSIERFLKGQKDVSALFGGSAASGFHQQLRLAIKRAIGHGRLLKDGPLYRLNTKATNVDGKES
| Sequence | E-score |
| --- | --- |
| CAGCCAGC | -0.0947 |
| AGATCGGA | 0.153 |
| CAATTACC | -0.177 |
| CTTCGTTA | 0.0149 |
| AGCGGGGG | 0.0828 |
| GACCCGAC | 0.195 |
| ACCACGAA | -0.00996 |
| AAATTAGG | 0.16 |
| AGATCACT | 0.16 |
| ACGCCGTG | 0.116 |
| AGACTAGG | -0.213 |
| ACAGTTAT | -0.111 |
| CTCACAAG | -0.0391 |
| GGAAGGAC | 0.0227 |
| AATATACA | -0.0572 |
| AGTGACAG | 0.0737 |
| CGGCTACC | 0.189 |
| TAATTACA | 0.043 |
| ACTGCTAT | -0.0718 |
| GTCGCCAC | -0.0136 |
| ATTACACG | -0.0231 |
| GATGCGCC | 0.125 |
| TATTCTGA | -0.196 |
| AGAGCGTC | -0.0742 |
| GAAGGGAC | 0.0353 |

Block 4
Target: RNA binding protein fox-1 homolog 2, RRM domain, GST-SBP tag (RBFOX2, Homo sapiens, UniProt O43251-10, residues 100-194)
Technique: RNA Bind-n-Seq
Form: RNA
Matrix: in vitro
Tested at: 365 nM
Notes: natural RNA segment, single round, ends assumed
Baseline: no-protein control
Direction: higher = stronger binding
All sequences stand within: GGGAGUUCUACAGUCCGACGAUC … UGGAAUUCUCGGGUGCCAA
Construct (chain): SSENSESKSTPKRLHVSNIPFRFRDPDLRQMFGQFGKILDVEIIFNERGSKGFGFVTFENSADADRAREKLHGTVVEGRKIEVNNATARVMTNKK
| Sequence | RBNS enrichment (R) |
| --- | --- |
| UGGCCACAGUGUUGGCUGGACUCUGACUCAGUGGCCCAGCCUGCAGCUGGAAGGACACAGGUUGCCGGAGUCCCUGACACAGCUCCAGCAUAUCUGUGACCAUCUGCUCC | 0.249 |
| GAUAUAUGACUCCUUUGGGCUACAUUUCAUAUUGAUCAAUUUCUAGGUAUUUUUCACUGGCCCAAAGUAUUGCAUUCCCUUAACAGCAAGCACAAGUUCUCUAUAUCACU | 0.753 |
| CUAUUUCACUGAGUCUGGAUAAGGUUUCAGAGUUCAAAUGCUUGACGUUGGCACUUAACAUGAAAGCCUAUAGGUCAUUCUUGCUCUGGGAUCUACAGGCAGGGUAGGCA | 0.978 |
| GCUGACCCUGUCACAACCUCCCAGCACAGCUUUGGAAUGAGACAUCAGCCUGGCCUCCAGCAGAGCAGAGGCUCUGGAGCUCCACAUCCUGCCUGCAGGGAGCCCUCAGG | 1.42 |
| AAUAUUACCUCAGAUACCUGUUGUCACUCUUCACAGGUUAUUUAAGUUUUUGAAGCUGGGAGGAAAAAGAUGGAGUAGCUUGGAAAGAUUCCAGCACUGAGCCGUGGGCC | 0.668 |
| GUAAUCAACAGCUUUCACUUUAGAUUCAAUGUGAACCGCAGAGUUACUCAUGACCAAGAGUCUGGCAAACUCAUUAAUGCUGUUUAAUACUUGUUUGAUAUUUUUUCACC | 0.547 |
| UAGCCAGUGGGAUGCCACUGCUUGCCACCACCUGUCCCCAGGCUUAGGUUUAGGGGAUGCGUAUACUUACUCCACACACGAGUUAGAAGUAUGAGUUGGCUGGUCAACUU | 0.281 |
| CCUUUUUAUGUAUGGGUUAGAAACUCUUUUUUCCCUAGUCAGAGCAGCCAGGCUGUACAAAAUCUGUGCUCUCUCGGUUCCCCAUGCCUCUAGAAGGCCGUUAAAACCAA | 0.244 |
| GGACCAUGACUUAGGGAGGUGGGACCCACCCACCCCCAUCCAGGAACCGUGACGUCCAAGGAACCAAACCCAGACGCAGAACAAUAAAAUAAAUUCCGUACUCCCCACCC | 0.395 |
| AUGCAUGACUAAAAAGGCUUGAAGUUGCUUGUGAGCAAGAAGCUUUUUAUGCUGCUUUCUUACAUAGUUUCUCUUCAUUUUCACUUAACUCUGAAGACAACCAAAAGAAC | 5.23 |
| ACUCUCUUUUCUUGUUCUUUUUGUGCUCAAGACCCACUGUUAUAGGAAUAAAGUUUAUGAGCUCAAGAACAUAACUGCUUUUUUUAGGUAUCUGUGUGUUCAUUAUCUGU | 0.382 |
| UUUUAGGCAACCACUCUCAAAAACAGCUUUAGAAUUUAUGCCCAGUUUUCUUGCAUUGAAAGAUAACUGAGUAAUAACCUGUAACUAUUUUUAAAUGGCAUGAAAUUAGG | 2.26 |

Some of these lines once more (block 4):
| Sequence | RBNS enrichment (R) |
| --- | --- |
| AUGCAUGACUAAAAAGGCUUGAAGUUGCUUGUGAGCAAGAAGCUUUUUAUGCUGCUUUCUUACAUAGUUUCUCUUCAUUUUCACUUAACUCUGAAGACAACCAAAAGAAC | 5.23 |
| ACUCUCUUUUCUUGUUCUUUUUGUGCUCAAGACCCACUGUUAUAGGAAUAAAGUUUAUGAGCUCAAGAACAUAACUGCUUUUUUUAGGUAUCUGUGUGUUCAUUAUCUGU | 0.382 |
| UAGCCAGUGGGAUGCCACUGCUUGCCACCACCUGUCCCCAGGCUUAGGUUUAGGGGAUGCGUAUACUUACUCCACACACGAGUUAGAAGUAUGAGUUGGCUGGUCAACUU | 0.281 |
| CUAUUUCACUGAGUCUGGAUAAGGUUUCAGAGUUCAAAUGCUUGACGUUGGCACUUAACAUGAAAGCCUAUAGGUCAUUCUUGCUCUGGGAUCUACAGGCAGGGUAGGCA | 0.978 |
| UGGCCACAGUGUUGGCUGGACUCUGACUCAGUGGCCCAGCCUGCAGCUGGAAGGACACAGGUUGCCGGAGUCCCUGACACAGCUCCAGCAUAUCUGUGACCAUCUGCUCC | 0.249 |
| AAUAUUACCUCAGAUACCUGUUGUCACUCUUCACAGGUUAUUUAAGUUUUUGAAGCUGGGAGGAAAAAGAUGGAGUAGCUUGGAAAGAUUCCAGCACUGAGCCGUGGGCC | 0.668 |
| CCUUUUUAUGUAUGGGUUAGAAACUCUUUUUUCCCUAGUCAGAGCAGCCAGGCUGUACAAAAUCUGUGCUCUCUCGGUUCCCCAUGCCUCUAGAAGGCCGUUAAAACCAA | 0.244 |
| GAUAUAUGACUCCUUUGGGCUACAUUUCAUAUUGAUCAAUUUCUAGGUAUUUUUCACUGGCCCAAAGUAUUGCAUUCCCUUAACAGCAAGCACAAGUUCUCUAUAUCACU | 0.753 |
| GUAAUCAACAGCUUUCACUUUAGAUUCAAUGUGAACCGCAGAGUUACUCAUGACCAAGAGUCUGGCAAACUCAUUAAUGCUGUUUAAUACUUGUUUGAUAUUUUUUCACC | 0.547 |
| GCUGACCCUGUCACAACCUCCCAGCACAGCUUUGGAAUGAGACAUCAGCCUGGCCUCCAGCAGAGCAGAGGCUCUGGAGCUCCACAUCCUGCCUGCAGGGAGCCCUCAGG | 1.42 |
| UUUUAGGCAACCACUCUCAAAAACAGCUUUAGAAUUUAUGCCCAGUUUUCUUGCAUUGAAAGAUAACUGAGUAAUAACCUGUAACUAUUUUUAAAUGGCAUGAAAUUAGG | 2.26 |
